Measurements from different studies.
Compare with care: the assays were run in different laboratories.
Target: Mitogen-activated protein kinase kinase kinase 15 (MAP3K15, Homo sapiens, UniProt Q6ZN16)

With COc1cc(Nc2nccc(-c3cnn4nc(OC)ccc34)n2)cc(C(F)(F)F)c1 the remaining binding was 100% (binding, competition with immobilised ligand; 1 µM).
With CNC(=O)C1CCN(c2cc(C)c(F)cc2NC(=O)c2ccc(-c3cc(O)ccc3C)c(C)c2)CC1 the remaining binding was 97% (binding, competition with immobilised ligand; 1 µM).
With CC(C)=CC1OC(C)(C)C2C=C3C(=O)C(Cl)=CC(O)C3C3C(O)C4OC4C(=O)C132 (stereo not drawn) the remaining binding was 72% (cell-free assay, competition with immobilised ligand; 10 µM).
CCN1CCN(Cc2ccc(C(=O)Nc3ccc(C)c(NCc4cnc5[nH]ccc5c4OC)c3)cc2C(F)(F)F)CC1 gave a remaining binding of 11% (binding, competition with immobilised ligand; 1 µM).
For Cc1ccc(-c2c(/C=C(\C#N)C(=O)NC(C)C)n(CCCO)c3ncnc(N)c23)cc1, the remaining binding was 100% (cell-free assay, competition with immobilised ligand; 1 µM).
For C=CC(=O)N1CCCC(n2c(=O)c3ncccc3n(Cc3ccc(Oc4ccccc4)cc3)c2=O)C1 (stereo not drawn), the remaining binding was 58% (cell-free assay, competition with immobilised ligand; 1 µM).
For Nc1ncc2c(n1)-c1c([nH]c3ccc(C4=CCOCC4)cc13)CCC2, the remaining binding was 100% (binding, competition with immobilised ligand; 1 µM).
COc1c(Cl)cccc1Nc1c(-c2ccncc2C#C[C@@]2(C)CCCN2C(=O)/C=C/CN(C)C)[nH]c2c1C(=O)NCC2 has a remaining binding of 73% (binding, competition with immobilised ligand; 3 µM).
For COc1cc(Nc2nc(C)cc(-c3cnn4nc(OC)ccc34)n2)cc(C(F)(F)F)c1, the remaining activity was 100% (inhibitor; 1 µM; relative to: control).
C=CC(=O)N1CCc2ccc(-n3c(=O)ccc4cnc5ccc(-c6cnn(C)c6)cc5c43)cc21 gave a remaining binding of 59% (KINOMEscan; 1 µM; relative to: DMSO control).
The remaining binding of CNC1C[S+]2CC[S+]3CC[S+](C1)[Ru-4]321([N]=C=S)[n]2c3ccc(OC)cc3c3c4c(c5cc(F)c[n+]1c5c32)C(=O)NC4=O (stereo not drawn) is reported as 98% (KinomeScan; 0.1 µM; relative to: untreated).
Cc1cnc2nc1Nc1cccc(c1)COC/C=C/COCc1cc(ccc1OCCN1CCOCC1)N2 gave a remaining binding of 62% (binding; 0.1 µM).

Some of these lines once more:
For C=CC(=O)N1CCCC(n2c(=O)c3ncccc3n(Cc3ccc(Oc4ccccc4)cc3)c2=O)C1 (stereo not drawn), the remaining binding was 58% (cell-free assay, competition with immobilised ligand; 1 µM).
For Nc1ncc2c(n1)-c1c([nH]c3ccc(C4=CCOCC4)cc13)CCC2, the remaining binding was 100% (binding, competition with immobilised ligand; 1 µM).
